Assay results pooled from the literature.
Lines come from different studies, so protocols differ. ± gives the spread as reported.
Chain of UniProt Q05513 (whole entry, looked up): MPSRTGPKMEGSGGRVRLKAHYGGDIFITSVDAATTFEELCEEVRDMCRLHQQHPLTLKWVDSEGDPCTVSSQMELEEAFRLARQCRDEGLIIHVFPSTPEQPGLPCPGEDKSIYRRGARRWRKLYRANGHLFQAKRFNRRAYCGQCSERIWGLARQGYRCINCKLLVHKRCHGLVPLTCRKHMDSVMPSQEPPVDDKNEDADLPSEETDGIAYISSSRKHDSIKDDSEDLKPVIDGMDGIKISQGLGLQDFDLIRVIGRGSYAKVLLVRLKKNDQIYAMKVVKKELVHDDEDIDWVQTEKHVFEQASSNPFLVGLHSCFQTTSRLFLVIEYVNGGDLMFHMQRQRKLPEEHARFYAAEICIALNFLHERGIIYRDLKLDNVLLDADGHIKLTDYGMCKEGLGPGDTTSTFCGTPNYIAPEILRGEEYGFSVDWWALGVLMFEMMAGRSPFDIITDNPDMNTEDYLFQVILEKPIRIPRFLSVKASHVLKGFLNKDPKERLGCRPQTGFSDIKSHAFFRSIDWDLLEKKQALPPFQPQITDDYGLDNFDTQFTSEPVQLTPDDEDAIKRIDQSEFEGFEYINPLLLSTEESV

NC(=O)c1ccc(-c2ccccc2Cl)c2c3c([nH]c12)CCC(N)C3 (centres unmarked)  IC50 (MX1; cell growth or viability; 96 h): 18.2 nM
C=C(NC(=O)c1csc(-c2nc3c(cc2O)-c2nc(cs2)C(=O)NC(C(C)O)C(=O)NC(=C(C)OC)c2nc(cs2)C(=O)NC2c4nc(cs4)C(=O)NC(COC(=O)c4c5c6c(cccc6n4O)COC(=O)C(OC4CC(C)(O)C(N(C)C)C(C)O4)C2OC5)c2nc-3cs2)n1)C(N)=O (centres unmarked)  MRT(0-last) (cynomolgus monkey, female, plasma; intravenous infusion, 3 mg/kg multiple doses, day 7): 1.33 h
Cc1ncsc1-c1ccc(C(C)NC(=O)C2CC(O)CN2C(=O)C(NC(=O)CCCCCCCCCCN2CCCC(Nc3ncc(Cl)c(Nc4ccccc4S(=O)(=O)C(C)C)n3)C2)C(C)(C)C)cc1 (centres unmarked)  log2 fold change (22Rv1; RNA-seq, item: TTC30B mRNA; concentration not given; reference: DMSO): -2.06
[BH3-][P+]1(c2ccccc2)CCC(=O)CC1  IC50 (SW-620; cell growth or viability, MTT; 72 h): > 100000 nM
CCn1nc(Cl)c2c1-c1cnc(N)c(c1)O[C@H](C)c1cc(F)ccc1-c1nn(C)cc1C2  IC50 (NCI-H2228 (EML4-ALK variant 3); cell viability): < 0.645 nM
COc1ccc(CN2C3(NC(c4ccc(OC)cc4)C24C(=O)Nc2ccccc24)C(=O)Nc2ccccc23)cc1 (centres unmarked)  IC50 (B16; cell growth or viability, MTT; 48 h): 53900 nM
CN1CCC(N[C@H]2CCc3[nH]c4c(C(N)=O)ccc(-c5ccccc5Cl)c4c3C2)CC1  IC50 (A549/DDP, cisplatin-resistant; cell growth, CellTiter-Glo; 96 h): 377 nM
CC[n+]1cccc2cc(/C=N/NC(=O)N/N=C/c3ccc4c(ccc[n+]4CC)c3)ccc21  ΔTm (telomeric G4 DNA hybrid-2; FRET melting; 1 µM, DNA 0.2 µM, together with: duplex DNA competitor 10 µM): 4.6 ± 0.3 °C
Cc1nn(-c2cccc(N)c2)c(=O)c2cnc(Nc3ccc(N4CCNCC4)cc3)nc12  IC50 (PRKCZ (Homo sapiens, UniProt Q05513); kinase activity, inhibitor, SelectScreen kinase profiling): > 10000 nM
C=CC(=O)Nc1cccc(Cn2ncc3cnc(Nc4cnn(CCOC)c4)nc32)c1  percent of control (RIOK3 human; binding, KINOMEscan; 100 nM; lower = stronger binding): 4.5%
C=CC(=O)N1CCCC(n2c(=O)c3ncccc3n(Cc3ccc(Oc4ccccc4)cc3)c2=O)C1 (centres unmarked)  IC50 (Toledo; cell growth or viability, MTT; 72 h): 600 nM
CC(C)c1ccc(N(C)c2ccc3c(c2)OCC[C@H]3CNc2cnccc2C(=O)O)cc1  IC50 (RT112/84; cell growth or viability, ATP luminescence; 7 days): 4.43 nM
Cc1cc(NC(=O)C(=O)N2C[C@@H](C)CC[C@@H]2c2ccc3scnc3c2)cnc1N  IC50 (MTAP-null HAP1 or LN-18; cell viability; 7 days): 100 to 200 nM
COc1ccccc1/C=C1\C(=O)Nc2ccc(Nc3nc(C)nc4ccccc34)cc21  IC50 (B16; cell growth or viability, MTT): 390 nM
OCn1cnc2ccccc21  IC50 (BEAS-2B; cell growth or viability, MTT; 24 h): 322000 nM
O=C(Nc1cnccc1-c1ccc([18F])nc1)c1ccnc(NC(=O)C2CC2)c1  median SUV (PET imaging; FVB/NJ mice, both sexes, liver; intravenous, 10 min): 8.81
CCOc1cncc(-c2ccc(NC(=O)C3(c4ccnc(NS(=O)(=O)C5CC5)n4)CCOCC3)nc2)n1  IC50 (KCL-22; cell proliferation, CellTiter-Glo; 72 h): 54 nM
Cc1nc(CN(C)c2ncnc3c2cnn3CCO)cs1  IC50 (CHO; cytotoxicity, MTT): > 50000 nM
CN(C)c1ccc(CCC(=O)N2C(=O)C3(NC(c4ccc(F)cc4)C4(C(=O)Nc5ccccc54)N3Cc3ccc(F)cc3)c3ccccc32)cc1 (centres unmarked)  IC50 (B16; cell growth or viability, MTT; 48 h): 26100 nM
Cc1nc(Nc2ccc3c(c2)/C(=C/c2cn(C)c4ccccc24)C(=O)N3C)c2ccccc2n1  IC50 (BEAS-2B; cell growth or viability, MTT): 4780 nM
C=CCOCO[C@H](C(=O)NC[C@@H]1C[C@@H](OC)C(C)(C)[C@@H](C[C@@H](COC)OC)O1)[C@@]1(OC)CC(=C)[C@@H](C)[C@@H](C)O1  IC50 (B16; cell growth or viability, SRB; 72 h): 3050 nM
Nc1ncc(-c2cc(-c3cnn(CC(F)(F)F)c3)ncc2F)nc1C(=O)NC1CNCC(F)C1 (centres unmarked)  remaining binding (PKMYT1; KINOMEscan; 1 µM; reference: DMSO control): 56%
CNS(=O)(=O)Nc1nccc(Cc2c(C)c3ccc(Oc4ncccc4F)cc3oc2=O)c1F  IC50 (Yamato-SS; cell viability, CellTiter-Glo; 7 days): 92.3 nM
CN1CCCNC(=O)c2cccc(c2)C(=O)NCCCN(C)CCCNc2cccc3c2C(=O)c2cccc(c2C3=O)NCCC1  log2 fold change (SAS; RNA-Seq, item: TM9SF4 mRNA; 1 µM, 6 h; reference: untreated cells): -0.529
Cc1nc(N(C)c2ccc3c(c2)/C(=C/c2ccccc2)C(=O)N3C)c2ccccc2n1  IC50 (B16; cell growth or viability, MTT): 1680 nM
C=CC(=O)Nc1cc(Nc2nccc(-c3cn(C)c4ccccc34)n2)c(OC)cc1N(C)CCN(C)C  IC50 (Ba/F3 EGFR 19Del BBT-176-resistant BR1; cell growth; 72 h): 1.7 nM
CSCC[C@@H](N)C(=O)N[C@@H](CC(C)C)C(=O)N[C@@H](CCCNC(=N)N)C(=O)N[C@@H](Cc1c[nH]c2ccccc12)C(=O)N[C@@H](CO)C(=O)N[C@@H](CCCNC(=N)N)C(=O)N[C@@H](CCCCN)C(=O)N[C@@H](CCSC)C(=O)N1CCC[C@H]1C(=O)N[C@@H](CS)C(=O)N[C@H](C(=O)N[C@@H](CO)C(=O)O)C(C)C  IC50 (SUP-T1; Erk phosphorylation, inhibitor, phospho flow cytometry; together with: CXCL12 100 ng/mL): 45600 ± 26000 nM
CC(=O)[O-].O.O.O.O.[Co+2].[O-]c1ccc(Br)cc1C=NCCN1CCOCC1  inhibition (nitric oxide scavenging; 80 µM): 20.9%
CC(=O)[O][Pt]([NH2])([NH2])([Cl])([Cl])[O]C(=O)C(C)c1ccc(CC(C)C)cc1 (centres unmarked)  IC50 (PSN1; cell growth or viability, MTT; 72 h): 990 nM
C=CC(=O)N1CC2C(=O)N(CCN(C)C)c3c(c4cc(Cl)c(-c5c(O)cccc5F)nc4n(-c4c(C)ccnc4C(C)C)c3=O)N2CC1C (centres unmarked)  IC50 (SW837; cell growth or viability): 7.96 nM
C=CC(=O)N1C[C@H](C)N(c2nc(OC[C@@]34CCCN3C[C@H](F)C4)nc3c(F)c(-c4ccc(F)c5sc(N)c(C#N)c45)c(C(F)(F)F)cc23)C[C@H]1C  IC50 (Ba/F3 expressing KRAS G12C/R68S; cell viability, CellTiter-Glo; 3 days): 5.6 nM
CC(C)C(=O)Cc1c(OCC(O)C(C)(C)O)ccc2ccc(=O)oc12 (centres unmarked)  IC50 (COLO 320 multidrug-resistant; cytotoxicity, MTT; 24 h, 10% fetal bovine serum): > 100000 nM
Cn1ncc(-c2ccc3c(=O)[nH]nc(CN)c3c2)c1-c1c(F)c(Cl)cc(OC2CC2)c1C#N  IC50 (NCI-H1666; cell viability, inhibitor, CellTiter-Glo; 120 h, baseline-subtracted): 50 nM
O=C1/C(=N\c2ccc(Cl)cc2Br)c2ccccc2N1Cc1cccc(Cl)c1 (mixture of isomers)  IC50 (B16; cell growth or viability, MTT; 48 h): 2070 nM
Cc1nc(Nc2ccc3c(c2)/C(=C/c2c[nH]c4ccccc24)C(=O)N3)c2ccccc2n1  IC50 (BEAS-2B; cell growth or viability, MTT): 18300 nM
CNC(=O)C1CCCN(C(=O)C2CC3CCC2N3C(=O)[C@@H]2C[C@@H](O)CN2C(=O)NCc2cccc(Cl)c2F)C1 (mixture of isomers)  remaining activity (CYP3A4 (human); inhibitor, time-dependent inhibition; 0.617 µM, preincubated with NADPH, together with: testosterone substrate; reference: negative control): 97.1%
CCCCC(=O)Nc1ccc(-c2ccc3ncn(CCC)c(=O)c3c2)cn1  IC50 (HCC827, PI5P4Kγ shRNA knockdown; cell viability, CCK-8; 72 h): 118 ± 70 nM
O=C1Nc2ccccc2/C1=N/c1ccc(Cl)cc1Br  IC50 (B16; cell growth or viability, MTT; 48 h): 8520 nM
C1=[N+]2CCCC[N+]3=Cc4ccc5[n]4[Au-]23[n]2c1ccc2-c1nc2ccccc2nc1-5.F[P-](F)(F)(F)(F)F  IC50 (786-0 renal cancer; cell growth): 4000 nM
Cc1nc(Nc2ccc3c(c2)/C(=C/c2ccccc2Cl)C(=O)N3C)c2ccccc2n1  IC50 (B16; cell growth or viability, MTT): 3090 nM
COC1CN([C@H]2CC[C@H]([C@@]3(C)Oc4c(Cl)cc(C(=O)NCc5c(SC)cc(C)[nH]c5=O)c(C)c4O3)CC2)C1  log2 fold change (RNA-seq, item: C3orf70 mouse homolog; mouse, HT-1376 xenograft, whole blood; dose not given; reference: vehicle): 0.929
CC(=O)[O][Pd][c]1ccccc1-n1nc(C)cc1C.CC(=O)[O][Pd][c]1ccccc1-n1nc(C)cc1C  IC50 (BEAS-2B; cell growth or viability, MTT; 24 h): 13200 nM
O=C1/C(=N\c2ccc(Cl)cc2Br)c2ccccc2N1Cc1ccccc1 (mixture of isomers)  IC50 (B16; cell growth or viability, MTT; 48 h): 9830 nM
Cc1cc(C)n(CO)n1  IC50 (BEAS-2B; cell growth or viability, MTT; 24 h): > 800000 nM
Cc1ccccc1Nc1c(-c2ccco2)nc2c(Br)cccn12  IC50 (UMRC2): 19100 nM
CCCC[C@H](NC(=O)COCCOCCNC(=O)CN1CCN(CC(=O)O)CCN(CC(=O)O)CC1)C(=O)N[C@H]1CC(=O)NCCCC[C@@H](C(N)=O)NC(=O)[C@H](Cc2c[nH]c3ccccc23)NC(=O)[C@H](CCCNC(=N)N)NC(=O)[C@@H](Cc2ccccc2)NC(=O)[C@H](Cc2c[nH]cn2)NC1=O [technetium-99m labelled]  tissue uptake (C57 mouse, lung; intravenous, 0.037 MBq, 2 h): 0.29 ± 0.11 %ID/g
Cc1sc2c(c1C)C(c1ccc(Cl)cc1)=N[C@@H](CC(=O)NCCN(C)CCCCNC(=O)CCCCOc1cccc3c1C(=O)N([C@H]1CCC(=O)NC1=O)C3=O)c1nnc(C)n1-2  IC50 (KATO III; cell growth or viability, CCK-8; 72 h): > 10000 nM

Repeated from above:
C=CC(=O)N1CC2C(=O)N(CCN(C)C)c3c(c4cc(Cl)c(-c5c(O)cccc5F)nc4n(-c4c(C)ccnc4C(C)C)c3=O)N2CC1C (centres unmarked)  IC50 (SW837; cell growth or viability): 7.96 nM
C=CC(=O)N1C[C@H](C)N(c2nc(OC[C@@]34CCCN3C[C@H](F)C4)nc3c(F)c(-c4ccc(F)c5sc(N)c(C#N)c45)c(C(F)(F)F)cc23)C[C@H]1C  IC50 (Ba/F3 expressing KRAS G12C/R68S; cell viability, CellTiter-Glo; 3 days): 5.6 nM
CC(C)C(=O)Cc1c(OCC(O)C(C)(C)O)ccc2ccc(=O)oc12 (centres unmarked)  IC50 (COLO 320 multidrug-resistant; cytotoxicity, MTT; 24 h, 10% fetal bovine serum): > 100000 nM
Cn1ncc(-c2ccc3c(=O)[nH]nc(CN)c3c2)c1-c1c(F)c(Cl)cc(OC2CC2)c1C#N  IC50 (NCI-H1666; cell viability, inhibitor, CellTiter-Glo; 120 h, baseline-subtracted): 50 nM
O=C1/C(=N\c2ccc(Cl)cc2Br)c2ccccc2N1Cc1cccc(Cl)c1 (mixture of isomers)  IC50 (B16; cell growth or viability, MTT; 48 h): 2070 nM
Cc1nc(Nc2ccc3c(c2)/C(=C/c2c[nH]c4ccccc24)C(=O)N3)c2ccccc2n1  IC50 (BEAS-2B; cell growth or viability, MTT): 18300 nM
